Assay results from different studies.
Every numbered part comes from another study and shows a few of its results, in no order. Substitutions count along the parent as printed.

Study 1
Target: PABPC1L2, full length, GST fusion (mouse, UniProt A0ABA7IW68)
Technique: RNAcompete
Form: RNA
Sample: in vitro
Concentration: 20 nM
Notes: 7-mer, probes averaged, single round
Reference: mean of 7-mers
Reading: higher = stronger binding
Target sequence (chain): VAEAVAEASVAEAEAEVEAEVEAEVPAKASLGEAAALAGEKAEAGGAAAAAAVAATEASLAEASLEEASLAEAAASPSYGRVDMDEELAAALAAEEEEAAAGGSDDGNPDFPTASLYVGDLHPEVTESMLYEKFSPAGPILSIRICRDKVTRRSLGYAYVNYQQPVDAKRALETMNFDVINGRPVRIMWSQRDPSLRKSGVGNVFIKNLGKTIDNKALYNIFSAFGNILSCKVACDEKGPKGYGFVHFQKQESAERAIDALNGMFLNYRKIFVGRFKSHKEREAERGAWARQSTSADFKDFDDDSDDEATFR
Sequence	7-mer Z-score
AGAUCGU	-0.443
CCUGUCU	-0.385
UCUGCUA	-0.325
GUGAAGC	0.144
CAUCGAA	0.0533
AAAGUUA	1.39
UUACUUG	-0.0319
UACACCU	-0.291
ACGACGA	0.234

Study 2
Target: CCNE2, cyclin fold, Cln2 fusion (human)
Technique: yeast growth competition, sequencing
Sample: yeast
Notes: weak parent motif
Reference: not given
Reading: higher = stronger binding
Parent: CDAN1 docking peptide (human); RGARSQLFPPTEA
Substitution	normalised enrichment score
P9A	0.268
G2A	0.412
Q6A	0.532
R1A	0.213
E12A	0.269

Study 3
Target: CREBL2, bZIP domain (human)
Technique: DHFR protein complementation
Sample: yeast
Notes: single substitutions, most at no-binding floor
Reference: wild-type JUN-FOS pair
Reading: higher = stronger binding
Parent: JUN, bZIP domain (human); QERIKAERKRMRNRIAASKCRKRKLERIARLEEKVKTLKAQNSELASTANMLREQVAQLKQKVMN; partner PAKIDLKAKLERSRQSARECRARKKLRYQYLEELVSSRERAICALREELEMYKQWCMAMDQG
Substitution	binding fitness
A49R	-1.24 natural log
R53T	-1.51 natural log
A40W	-1.52 natural log
V56S	-1.55 natural log
T37I	-1.5 natural log
V56L	-1.42 natural log
E33R	-1.54 natural log
L31R	-1.53 natural log
T37A	-1.34 natural log
A49K	-1.47 natural log

Study 4
Target: ABI1, truncated, D143A, DHFR fusion (Arabidopsis thaliana)
Technique: DHFR PCA, deep sequencing
Sample: yeast
Notes: methotrexate growth selection, single substitutions
Together with: (+)-ABA 0.11 µM
Reference: wild-type fitted maximum
Reading: higher = stronger binding
Parent: PYL1, truncated, DHFR fusion (Arabidopsis thaliana); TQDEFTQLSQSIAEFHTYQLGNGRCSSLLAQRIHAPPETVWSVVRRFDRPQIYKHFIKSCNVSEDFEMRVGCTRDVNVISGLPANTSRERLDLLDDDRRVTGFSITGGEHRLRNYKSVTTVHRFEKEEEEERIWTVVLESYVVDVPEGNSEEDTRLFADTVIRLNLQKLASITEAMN; partner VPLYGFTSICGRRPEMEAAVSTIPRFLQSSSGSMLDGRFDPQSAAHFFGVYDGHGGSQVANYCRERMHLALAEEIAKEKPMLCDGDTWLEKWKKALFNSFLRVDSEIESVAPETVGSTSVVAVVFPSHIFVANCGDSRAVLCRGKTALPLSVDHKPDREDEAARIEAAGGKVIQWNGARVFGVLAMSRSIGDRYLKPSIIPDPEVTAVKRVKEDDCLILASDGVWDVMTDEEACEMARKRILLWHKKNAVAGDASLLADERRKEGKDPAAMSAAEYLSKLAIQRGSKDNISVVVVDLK
Substitution	relative binding score [%]
S26R	1.67
R123H	44.1
Y53P	-8.23
F103R	-6.54
H122Q	-5.09
S117C	-2.35
C72S	33
E14A	8.88
D97K	39.6
H55M	34.9
Q19W	3.36
K168L	4.78
E130G	36
L156N	-0.342
G81S	41.1
E38D	31.4

Study 5
Target: Interferon regulatory factor 5, full length, phosphomimetic (IRF5, Homo sapiens, UniProt Q13568-2, residues 1-514, S451D/S453D/S456D/S462D)
Technique: protein-binding microarray
Form: double-stranded DNA, one strand shown
Sample: in vitro
Concentration: 940 nM top
Notes: 60-bp whole probe
Together with: salmon DNA 0.4 mg/ml
Reference: random background probes
Reading: higher = stronger binding
Constant ends, left off below: GCCTAGCAC … GTCTTGATTCGCTTGACGCTGCTG
Sequence	fitted relative affinity [z-score]
TCATTGTTGTTTTTTGGACTGTGCTAG	1.01
TTAGGACTGGACCTTCGGTTAGTGCTA	-0.658
TTAGATCTCAGACTGGATTTGTGCTAG	-0.376
TTAGGTATCGGGTCTCGGTTAGTGCTA	6.37
GTCTCTATCAAAAATACAAAAGTGCTA	2.13
GACGGACTGCTTATCCTGGCGTGCTAG	-0.506
TTAGGTATCCTACTACTTTAGTGCTAG	-0.0732
TTAGGTTTCCTTATCCTTGAGTGCTAG	1.69
GACGGTTACCTTCTCCTGACGTGCTAG	0.283
TCACCTTCAGCTCTAGGACTGTGCTAG	-0.292
CTACTTCTCTTTTGGCTTTCGTGCTAG	1.73
TTAGGTTACCTTATCCTTTAGTGCTAG	-0.205
TTCCAATTCTTTTTATGCTTGTGCTAG	2.08
TTGGATATCAGTTTCGATTAGTGCTAG	8.12
GACGAATTGAGTTTCGAGACGTGCTAG	3.98
TCAAGTTTCTCTTTCCTACTGTGCTAG	4.35
TCATATTAAAATTTCATACTGTGCTAG	0.467
TTAGATCTCAGACCGGATTAGTGCTAG	-0.273
TCAAGTCTCATATTTATACTGTGCTAG	1.98
TTAAATTTCAGTTTCGATTAGTGCTAG	9.5
GACGATTTCAGTATCGAGACGTGCTAG	2.69
GACGGACTGGGACTGGGGGCGTGCTAG	0.191
GACGGTTTCATTCTCCTGACGTGCTAG	5.52

Study 6
Target: RNA binding protein fox-1 homolog 2, RRM domain, GST-SBP tag (RBFOX2, Homo sapiens, UniProt O43251-10, residues 100-194)
Technique: RNA Bind-n-Seq
Form: RNA
Sample: in vitro
Concentration: 365 nM
Notes: natural RNA segment, single round, ends assumed
Reference: no-protein control
Reading: higher = stronger binding
Constant ends, left off below: GGGAGUUCUACAGUCCGACGAUC … UGGAAUUCUCGGGUGCCAA
Target sequence (chain): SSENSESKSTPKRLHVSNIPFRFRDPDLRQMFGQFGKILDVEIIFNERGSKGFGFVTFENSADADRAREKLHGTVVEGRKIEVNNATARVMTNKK
Sequence	RBNS enrichment (R)
AAAUUCCCGAAAGGACCUCUCGAAAGCAUGGAAUUUCCUGACUGUGCCAAGGGCCUGGAUAAAGGGGAACUACGGCAUCUUGGAGCUCACAAAUGUGAAUCAAGCAGUCC	1.74
AUUUGUUAUGGAGCUGUGCUAAUUUCACUAUCAAAAUAUUUGUUGGAUGAAUAAAUGCUACGAAACGUUACUUAUUUUUUAAAAGGUUAUUAGACUUAUUUUAUUUUAUG	0.546
AAGAGAAGAGACACAUUGUUGGAAGAAGCAGCCCAUGACAGCUCCCCUUCCUGGGACUCGCCCUCAUCCUCUUCCUGCUCCCCUUCCUGGGGUGCAGCCUAAAAGGACCU	0.26
UUUGAAAGACAUUUUUCAUUGUUCCAUUACCUAUAGAAAUGGUAUUUCAUGACCUAGGGAAAAAGGAAUUACUCCUUUUUGUAGACUCAUACCUGAAAGCAGUGAUUUAC	0.219
GGGCAGCCCCAGCCCUGGGAACCUCUCCCACUACACCCACAAGACGCCACCAUGAAGCCUCAAAAGGUUCAGUAUUAAGGGUUUUAACCGAAAAGAGUUUAACCAGCCCA	0.326
CACCCAAGCUCUGUUCAUGUUUUUGUGAAUUCUAGGCUGGUGCUGCACUGAAAUAGAGCAGUAAGCUUGUGAUAAAGGCCAAUUCCAGGUAGCUCUUGAAGGUGAUAGCC	0.404
GGGAUGAGCCCAGGGUUUCAUGCAUGCCAGCAAACAUUCUACUAUCUGAGCAAUGUCCCCAGUGUCCCCUCUGGUCAUGUCCUGUUUCUGCCUCAGGGAUUGUCUCUGUU	2.88
UCAGAGAAAUUGCUCACAAAAGUUAGUGACAGUUGUAUUUAUUUUUUUAAGUUACAAUAAAAUGCUCUCAAGUCCUUUGAAUGUUCCAACAAAUUCAAAACUUCAUUUUC	0.77
CAUCUCAUUCAAACCCCACCCUAGUUUCCCUGAAGGAACAUUCCUUAGUCUCAAGGGCUAGCAUCCCUGAGGAGCCAGGCCGGGCCGAAUCCCCUCCCUGUCAAAGCUGU	0.5
GCUGGGGUAAGCACUAGACCCAAGUAGACUGGACACAAAGGGCUCGCCCAGGGCCCUGGCGCCACCCCCACCCCUUCCCACCAGCUGCUGCUAGCCUCUGUGGUUGUACA	0.675
CACCCACCACUUACUUGUGCCAGAAACUCUGGAGGCACCCACACCUCCCACCUGUUCAGGUUGUGGCAGCCUCUGUGCAGGUUGGAUGUGGAAAUAAAAGCAACCCUGUG	0.838
UAUAGAGAAAAAUAGAAAGAUAAAAUGUAAAAUCAAAUCUUCAGGCAAUCUUACAAUUUGACCAGAGAAUAUUUUUUAUUAGUACUAGUUGUUAUUACCUAUAAUUGAGA	0.402

Mixed results
Substance	target	test	system	setting	scale	endpoint	result
PhoQ, residues 284 288 289 292 302 303 SLANKL	PhoP, residues 12 14 15 18 19 GQALL (Escherichia coli, UniProt P23836)	Sort-seq, item: YFP reporter	E. coli	PhoQ-PhoP variant library, together with: 10 µM Mg2+	reference: high Mg2+ state, higher = stronger signaling	fold induction	18.4

For quick reference, copied from above (study 6):
Sequence	RBNS enrichment (R)
AAAUUCCCGAAAGGACCUCUCGAAAGCAUGGAAUUUCCUGACUGUGCCAAGGGCCUGGAUAAAGGGGAACUACGGCAUCUUGGAGCUCACAAAUGUGAAUCAAGCAGUCC	1.74
AUUUGUUAUGGAGCUGUGCUAAUUUCACUAUCAAAAUAUUUGUUGGAUGAAUAAAUGCUACGAAACGUUACUUAUUUUUUAAAAGGUUAUUAGACUUAUUUUAUUUUAUG	0.546
AAGAGAAGAGACACAUUGUUGGAAGAAGCAGCCCAUGACAGCUCCCCUUCCUGGGACUCGCCCUCAUCCUCUUCCUGCUCCCCUUCCUGGGGUGCAGCCUAAAAGGACCU	0.26
UUUGAAAGACAUUUUUCAUUGUUCCAUUACCUAUAGAAAUGGUAUUUCAUGACCUAGGGAAAAAGGAAUUACUCCUUUUUGUAGACUCAUACCUGAAAGCAGUGAUUUAC	0.219
GGGCAGCCCCAGCCCUGGGAACCUCUCCCACUACACCCACAAGACGCCACCAUGAAGCCUCAAAAGGUUCAGUAUUAAGGGUUUUAACCGAAAAGAGUUUAACCAGCCCA	0.326
CACCCAAGCUCUGUUCAUGUUUUUGUGAAUUCUAGGCUGGUGCUGCACUGAAAUAGAGCAGUAAGCUUGUGAUAAAGGCCAAUUCCAGGUAGCUCUUGAAGGUGAUAGCC	0.404
GGGAUGAGCCCAGGGUUUCAUGCAUGCCAGCAAACAUUCUACUAUCUGAGCAAUGUCCCCAGUGUCCCCUCUGGUCAUGUCCUGUUUCUGCCUCAGGGAUUGUCUCUGUU	2.88
UCAGAGAAAUUGCUCACAAAAGUUAGUGACAGUUGUAUUUAUUUUUUUAAGUUACAAUAAAAUGCUCUCAAGUCCUUUGAAUGUUCCAACAAAUUCAAAACUUCAUUUUC	0.77
CAUCUCAUUCAAACCCCACCCUAGUUUCCCUGAAGGAACAUUCCUUAGUCUCAAGGGCUAGCAUCCCUGAGGAGCCAGGCCGGGCCGAAUCCCCUCCCUGUCAAAGCUGU	0.5
GCUGGGGUAAGCACUAGACCCAAGUAGACUGGACACAAAGGGCUCGCCCAGGGCCCUGGCGCCACCCCCACCCCUUCCCACCAGCUGCUGCUAGCCUCUGUGGUUGUACA	0.675
